Assay results pooled from the literature.
Values joined by “and” are separate records of one study, mostly repeats; a detail may differ.
Target: Mu-type opioid receptor (Oprm1, Rattus norvegicus, UniProt P33535)
Chain of UniProt P33535 (whole entry, looked up): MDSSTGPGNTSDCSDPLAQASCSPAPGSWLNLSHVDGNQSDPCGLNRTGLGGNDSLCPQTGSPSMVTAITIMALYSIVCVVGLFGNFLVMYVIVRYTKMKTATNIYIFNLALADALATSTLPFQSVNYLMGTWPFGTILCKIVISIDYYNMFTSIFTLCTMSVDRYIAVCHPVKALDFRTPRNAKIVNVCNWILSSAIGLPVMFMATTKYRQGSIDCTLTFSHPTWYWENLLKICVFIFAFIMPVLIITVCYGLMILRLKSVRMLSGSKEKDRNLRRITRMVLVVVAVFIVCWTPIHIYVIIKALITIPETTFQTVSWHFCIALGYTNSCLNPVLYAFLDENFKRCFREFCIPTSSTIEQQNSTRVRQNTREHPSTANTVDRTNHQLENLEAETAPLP

SMILES | assay | test system | setting | quantity | result
N=C(N)NCCC[C@@H]1NC(=O)[C@@H](Cc2ccc(O)cc2)NC(=O)[C@@H](CCCCN)NC(=O)[C@@H](Cc2ccccc2)NC1=O | ligand displacement, radioligand | – | cell membranes | Ki | 1 to 2 nM and 2.3 nM
Cc1cc(O)cc(C)c1C[C@H](N)C(=O)N[C@H](CCCNC(=N)N)C(=O)N[C@@H](Cc1ccccc1)C(=O)N[C@@H](CCCCN)C(=O)NNC(=O)[C@H](Cc1ccccc1)NC(=O)[C@H](CC1CCCCC1)NC[C@@H]1Cc2ccccc2CN1C(=O)[C@@H](N)Cc1ccc(O)cc1 | ligand displacement, radioligand | – | cell membranes | Ki | 11.2 nM
Cc1cc(O)cc(C)c1C[C@H](N)C(=O)N[C@@H]1CCCCC[C@@H](C(N)=O)NC(=O)[C@H](Cc2ccccc2)NC(=O)[C@H](Cc2ccccc2)NC1=O | ligand displacement, radioligand | – | cell membranes | Ki | 1.54 nM
CC(=O)N[C@@H](Cc1ccc(O)cc1)C(=O)N[C@@H](C(=O)N[C@H](C(=O)N[C@H](Cc1ccccc1)C(N)=O)C(C)C)C(C)C | GIRK current, agonist, whole-cell patch clamp | rat locus coeruleus neurons, brain slices | – | EC50 | > 10000 nM
NC(=O)[C@@H]1CC/C=C/C[C@@H](NC(=O)[C@@H](N)Cc2ccc(O)cc2)C(=O)N[C@@H](Cc2ccccc2)C(=O)N[C@@H](Cc2ccccc2)C(=O)N1 | ligand displacement, radioligand | – | cell membranes | Ki | 0.332 nM
Cc1cc(O)cc(C)c1C[C@H](N)C(=O)N[C@H](CCCNC(=N)N)C(=O)N[C@@H](Cc1ccccc1)C(=O)N[C@@H](CCCCN)C(=O)N[C@H]1CCCC[C@@H]1NC(=O)[C@H](Cc1ccccc1)NC(=O)[C@H](CC1CCCCC1)NC[C@@H]1Cc2ccccc2CN1C(=O)[C@@H](N)Cc1ccc(O)cc1 | ligand displacement, radioligand | – | cell membranes | Ki | 80.3 nM
Oc1cccc(CCN(CCc2ccccc2)CC2CCCC2)c1 | β-arrestin recruitment, antagonist | – | – | IC50 | 1800 nM
Cc1cc(O)cc(C)c1C[C@H](N)C(=O)N[C@@H]1C/C=C/CC[C@@H](C(N)=O)NC(=O)[C@H](Cc2ccccc2)NC(=O)[C@H](Cc2ccccc2)NC1=O | ligand displacement, radioligand | – | cell membranes | Ki | 0.438 nM
Cc1cc(O)cc(C)c1C[C@H](N)C(=O)N[C@H](CCCNC(=N)N)C(=O)N[C@@H](Cc1ccccc1)C(=O)N[C@@H](CCCCN)C(=O)NCCCCCCNC(=O)[C@H](Cc1ccccc1)NC(=O)[C@H](CC1CCCCC1)NC[C@@H]1Cc2ccccc2CN1C(=O)[C@@H](N)Cc1ccc(O)cc1 | ligand displacement, radioligand | – | cell membranes | Ki | 18.6 nM
